Measurements of several laboratories.
Compare with care: the assays were run in different laboratories.

SMILES	tested on	test	system	setting	scale	endpoint	value
c1ccc(-c2n[nH]cc2-c2ccnc3ccccc23)nc1	CDC15 (Candida albicans)	kinase binding, MIB/MS competition	Candida albicans lysate	1 µM	reference: DMSO	log2 fold change	-0.02
C=CC(=O)Nc1cccc(Cn2ncc3cnc(Nc4cnn(CCOC)c4)nc32)c1	PIM3 human	binding, KINOMEscan		100 nM	lower = stronger binding	percent of control	99%
CCN(CC)CC(=O)Nc1cccc(-n2cc(-c3ccc4ccc(-c5cn(-c6cccc(NC(=O)CN(CC)CC)c6)nn5)cc4c3)nn2)c1	RCC4	PCR angiogenesis array, item: TIMP1		5 x IC50, 2 h, normoxia	reference: untreated	fold regulation	1.03 fold
COC1CN([C@H]2CC[C@H]([C@@]3(C)Oc4c(Cl)cc(C(=O)NCc5c(SC)cc(C)[nH]c5=O)c(C)c4O3)CC2)C1		RNA-seq, item: FZD3 mouse homolog	mouse, HT-1376 xenograft, whole blood	dose not given	reference: vehicle	log2 fold change	2.04
COc1ccccc1-c1ccncc1C(=O)Nc1nnc(OCc2ccc(Cl)cc2)s1	PEO1 BRCA2-mutant ovarian cancer			1.00 µM, added: olaparib 0.5 µM		colony survival	0%
Nc1ncc(-c2cc(-c3cnn(CC(F)(F)F)c3)ncc2F)nc1C(=O)NC1CNCC(F)C1 (stereo not drawn)	NEK1	KINOMEscan		1 µM	reference: DMSO control	remaining binding	82%
Cc1ncsc1-c1ccc(C(C)NC(=O)C2CC(O)CN2C(=O)C(NC(=O)CCCCCCCCCCN2CCCC(Nc3ncc(Cl)c(Nc4ccccc4S(=O)(=O)C(C)C)n3)C2)C(C)(C)C)cc1 (stereo not drawn)	22Rv1	RNA-seq, item: ZC2HC1C mRNA		concentration not given	reference: DMSO	log2 fold change	-2.06
COc1cc2c(NC3CCN(C(C)C)CC3)cc(N3CCOCC3)nc2cc1OCCCN1CCCC1		TMT proteomics, item: THY1	5xFAD mice, hippocampus	dose not given	reference: untreated 5xFAD mice	log2 fold change	0.0458
C=CC(=O)N1[C@H](c2ccc3c(c2)OCO3)c2[nH]c3ccccc3c2C[C@@H]1C(=O)N1CCN(C)CC1	human cyclin E1 N112C-3xFLAG:CDK2	co-IP with TMT proteomics, item: SNRPD3		concentration not given, P62318	reference: wild type DMSO	relative co-enrichment	129%

Some of these lines once more:
SMILES	tested on	test	system	setting	scale	endpoint	value
COC1CN([C@H]2CC[C@H]([C@@]3(C)Oc4c(Cl)cc(C(=O)NCc5c(SC)cc(C)[nH]c5=O)c(C)c4O3)CC2)C1		RNA-seq, item: FZD3 mouse homolog	mouse, HT-1376 xenograft, whole blood	dose not given	reference: vehicle	log2 fold change	2.04
